Results collected from several papers.
Each line is one published result; not all experiments were run side by side. Numbers after ± are the reported error.

CCCCCC(=O)OCn1cc(F)c(=O)[nH]c1=O — IC50 (Caco-2; cell growth or viability, MTT; 48 h): 10.8 µM
CCN(CC)c1ccc(C2CC(c3ccccc3O)=NN2c2ccccc2)cc1 (stereo not drawn) — EC50 (HeLa; cell viability, MTT; 72 h): > 500 µM
CC(C)C[C@H](NC(=O)OCc1ccccc1)C(=O)N[C@@H](C[C@@H]1CCNC1=O)C(O)S(=O)(=O)O (stereo partly drawn) — EC50 (feline coronavirus; viral replication; CRFK, FIPV-1146; 36 h): 0.05 ± 0.04 µM
CC(C)C[C@@H]1NC(=O)[C@H](CCCN)NC(=O)[C@H](C(C)C)NC(=O)[C@@H]2CCCN2C(=O)[C@@H](Cc2ccccc2)NC(=O)[C@H](CC(C)C)NC(=O)[C@H](CCCN)NC(=O)[C@H](C(C)C)NC(=O)[C@@H]2CCCN2C(=O)[C@@H](Cc2ccccc2)NC1=O — extra electrons per lipid (X-ray reflectivity; DPPG monolayer headgroups): 135 ± 7
O=C[C@H](C[C@@H]1CCNC1=O)NC(=O)[C@H](CC1CCCCC1)NS(=O)(=O)c1ccc(Cl)cc1 — EC50 (feline coronavirus; viral replication; CRFK, FIPV-1146; 36 h): 0.39 ± 0.03 µM
Oc1ccccc1C1=NN(c2ccccc2)C(c2ccccc2C(F)(F)F)C1 (stereo not drawn) — EC50 (MCF7; cell viability, MTT; 72 h): > 500 µM
NCCCN1CC(=O)N(CC(c2ccccc2)c2ccccc2)CC(=O)N(CCCN)CC(=O)N(CC(c2ccccc2)c2ccccc2)CC(=O)N(CCCN)CC(=O)N(CC(c2ccccc2)c2ccccc2)CC1=O — extra electrons per lipid (X-ray reflectivity; DPPG monolayer tails): 167 ± 8
O=C(O)COc1ccc(Br)cc1C=NNC(=O)Cc1ccccc1 (mixture of isomers) — seizure severity (Racine scale 0-5; male mice, pilocarpine-induced seizures; oral, 20 mg/kg, 0.5 h after pilocarpine, unit not given, with: pilocarpine 300 mg/kg i.p.; higher = more severe): 2.3 ± 0.48
NCCCN1CC(=O)N(Cc2ccccc2)CC(=O)N(CCCN)CC(=O)N(Cc2ccccc2)CC(=O)N(CCCN)CC(=O)N(Cc2ccccc2)CC1=O — extra electrons per lipid (X-ray reflectivity; DPPG monolayer tails): 0
N#Cc1ccc(C2CC(c3ccccc3O)=NN2c2ccccc2)cc1 (stereo not drawn) — EC50 (MCF7; cell viability, MTT; 72 h): > 500 µM
CC(C)C[C@H](NC(=O)[C@@H](NC(=O)[C@H](CCCNC(=N)N)NS(=O)(=O)Cc1ccccc1)C(C)C)[C@@H](O)CC(=O)NCCc1ccccc1 — EC50 (Plasmodium falciparum; parasite growth; 3D7; blood stage): 6.05 µM
Oc1ccccc1C1=NN(c2ccccc2)C(c2ccc(C(F)(F)F)cc2)C1 (stereo not drawn) — EC50 (MCF7; cell viability, MTT; 72 h): > 500 µM
O=C(O)COc1ccccc1/C=N/NC(=O)CNc1ccc(Cl)cc1 — seizure severity (Racine scale 0-5; male mice, pilocarpine-induced seizures; oral, 20 mg/kg, 0.5 h after pilocarpine, unit not given, with: pilocarpine 300 mg/kg i.p.; higher = more severe): 3.3 ± 0.48
CN(C)c1ccc(C2CC(c3ccccc3O)=NN2c2ccccc2)cc1 (stereo not drawn) — EC50 (HeLa; cell growth or viability, MTT; 72 h): > 500 µM
O=C(O)COc1ccc(Br)cc1/C=N/NC(=O)CNc1ccc(Cl)cc1 — seizure protection (mouse, PTZ-induced seizures; oral, 20 mg/kg, 0.5 h, with: PTZ 85 mg/kg i.p.): 40%
O=C(N[C@@H](CC1CCCCC1)C(=O)N[C@@H](C[C@@H]1CCNC1=O)C(O)S(=O)(=O)O)OCc1cccc(Cl)c1 (stereo partly drawn) — EC50 (feline coronavirus; viral replication; CRFK, FIPV-1146; 36 h): 0.05 ± 0.02 µM
Cc1ccc(C(=O)N/N=C/c2cc(Br)ccc2OCC(=O)O)cc1 — seizure severity (Racine scale 0-5; male mice, pilocarpine-induced seizures; oral, 20 mg/kg, 1 h after pilocarpine, unit not given, with: pilocarpine 300 mg/kg i.p.; higher = more severe): 2.8 ± 0.63
Oc1ccccc1C1=NN(c2ccccc2)C(c2cccs2)C1 (stereo not drawn) — EC50 (HeLa; cell viability, MTT; 72 h): > 500 µM
NCCCN1CC(=O)N(Cc2cc(C(F)(F)F)cc(C(F)(F)F)c2)CC(=O)N(CCCN)CC(=O)N(Cc2cc(C(F)(F)F)cc(C(F)(F)F)c2)CC(=O)N(CCCN)CC(=O)N(Cc2cc(C(F)(F)F)cc(C(F)(F)F)c2)CC1=O — extra electrons per lipid (X-ray reflectivity; DPPG monolayer tails): 283 ± 10
Oc1ccccc1C1=NN(c2ccccc2)C(c2ccc(F)cc2)C1 (stereo not drawn) — EC50 (HeLa; cell viability, MTT; 72 h): > 500 µM
O=C1Nc2ccc(S(=O)(=O)Nc3ccccc3)cc2C1=C1CCCC1 — protein level (RAW264.7; Western blot, refers to: phospho-IκBα; concentration not given, with: LPS 100 ng/mL, 1 h): no effect
CC(C)C[C@H](NC(=O)[C@@H](NC(=O)[C@H](CCONC(=N)N)NC(=O)OCc1ccccc1)C(C)C)[C@@H](O)CC(=O)NCCc1ccccc1 — EC50 (Plasmodium falciparum; parasite growth; 3D7; 72 h, blood stage): 0.69 µM
Oc1ccccc1C1=NN(c2ccccc2)C(c2cccc(C(F)(F)F)c2)C1 (stereo not drawn) — EC50 (HeLa; cell growth or viability, MTT; 72 h): > 500 µM
NCCCN1CC(=O)N(Cc2ccccc2)CC(=O)N(CCCN)CC(=O)N(Cc2ccccc2)CC(=O)N(CCCN)CC(=O)N(Cc2ccccc2)CC(=O)N(CCCN)CC(=O)N(Cc2ccccc2)CC(=O)N(CCCN)CC(=O)N(Cc2ccccc2)CC1=O — extra electrons per lipid (X-ray reflectivity; DPPG monolayer tails): 96 ± 6

For quick reference, copied from above:
O=C(O)COc1ccc(Br)cc1C=NNC(=O)Cc1ccccc1 (mixture of isomers) — seizure severity (Racine scale 0-5; male mice, pilocarpine-induced seizures; oral, 20 mg/kg, 0.5 h after pilocarpine, unit not given, with: pilocarpine 300 mg/kg i.p.; higher = more severe): 2.3 ± 0.48
NCCCN1CC(=O)N(Cc2ccccc2)CC(=O)N(CCCN)CC(=O)N(Cc2ccccc2)CC(=O)N(CCCN)CC(=O)N(Cc2ccccc2)CC1=O — extra electrons per lipid (X-ray reflectivity; DPPG monolayer tails): 0
N#Cc1ccc(C2CC(c3ccccc3O)=NN2c2ccccc2)cc1 (stereo not drawn) — EC50 (MCF7; cell viability, MTT; 72 h): > 500 µM
